Assay results gathered from unrelated publications.
Numbered parts are unrelated; each lists some results of a single study. Changes are numbered by the printed parent chain.

Series 1
Target: RING finger protein unkempt homolog, zinc fingers 1-6, GST-SBP tag (UNK, Homo sapiens, UniProt Q9C0B0, residues 30-357)
Technique: RNA Bind-n-Seq
Molecule type: RNA
Matrix: in vitro
Concentration: not given
Notes: RNA with constant flanks, human and mouse sites, ends assumed
Reference: input RNA pool
Reading: higher = stronger binding
Shared flanks, not repeated: GGGAGUUCUACAGUCCGACGAUC … CAACAGAGGAUUGAGCAUCA
Target sequence (chain): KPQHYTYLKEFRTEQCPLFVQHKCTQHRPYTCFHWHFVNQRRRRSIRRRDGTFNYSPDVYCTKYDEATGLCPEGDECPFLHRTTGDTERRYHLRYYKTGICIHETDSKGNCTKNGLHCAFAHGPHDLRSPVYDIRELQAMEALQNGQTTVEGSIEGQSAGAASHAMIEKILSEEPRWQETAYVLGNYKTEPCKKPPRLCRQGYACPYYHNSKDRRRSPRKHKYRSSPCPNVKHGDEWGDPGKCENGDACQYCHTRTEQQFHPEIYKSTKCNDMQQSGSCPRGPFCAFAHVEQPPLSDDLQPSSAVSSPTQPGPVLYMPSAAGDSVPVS
| Strand | bound/input enrichment |
| --- | --- |
| CGGCGCGAGGCAGUAUGGUUUGAAGUGGUGAACAUGGAUUUUUCUCGGCUUCACAUGUACAGUCCUCCCCAGUGUGUGCCGGAGAACACGGGCUACACGUAUGCGCUCAGUUCCAGCUAU | 0.0949 ratio |
| AAUGUAUCUGAACUUAGUUUAUGGGUUAUUCAAGGAUGUUUUUGGUUAUUUGGAACUGUCAUACUUAAAUACUUGACAUCUAAAAUUUUUGGUAUUGCAGAUGACGCUCAUAUUGGCAAC | 0.188 ratio |
| UUCUUCCCUAAGAGAACCACCUCCCUGAUUCUUCCCGGCAUCAUAAAGGCAGCUGCUCACGUAUUAUAUGAAACGGAAGUGGAAGUGUCGUUAAUGCCUCCCUGCUUCCAUAAUGAUUGC | 0.392 ratio |
| UAUGCAUUUAUAUAACUGUUUUGUUAUUUGAAUCUUGGAAAACUAGUUUUAUUAUAUUCAGAUAGCCUUGUUUUUUAAAAAGGCCUUUGCAUACACCUUUAUGAGAUAGUGUAAAAUUGA | 30.9 ratio |
| ACUUGGAGAGGAUUAUCUUUGAGCCAAGAUUUGGACAGGAGUGAAGUCGGUCCUUAAGAAUUUGUGGCGCGACCGGAGCUGGGCUCCUGACAGGUGGGCUUGUGUUGUGUCCCCUCUGAU | 0.271 ratio |
| AGUAGUCAAGGGUAUCAAUGGAUCUGAUCUGAGGAAACACAGGAAGACAGCUCUACAACUGUCUACAACAGCUGGUAGGGCAAGGCUCUGUCUUCUGUGUGUGACGCGUGUAUUGAACAG | 0.115 ratio |
| UGUACUGACCAGAGGCAGAGUGCAUUCCCGUUUUCCCUCAGUACUUGAUGUUGAGACAAGUGUGCAGGCACAGCUGUAAUUAAUGCAGGCCAACCGACACUUGGAGGGCAGCUUUGGCCU | 0.0438 ratio |
| AUUAAUGCCCUUACUCUAUUUGAGAUUAUCUAUGACAAUCUCAGAGCAGAAGUGUUUAACUAUAGAGAAUUCAAUAAAGGUUCCCUUUUUUACUUAUGCACUACAUCUGGAGUGUGUGUU | 0.257 ratio |
| GAUUUUUGCAUUGGAAAAGCAGCACAUUCUCUGACCUUGGGUACCAAGCUAUGAUACUAAUUUGAGAAUCACAUUCUGAUACGUUAAUAUCAGAAAUCAGUGAGCAACCUAAUUGCUGUA | 0.199 ratio |
| CAGGCUGCCAACUCUCCACCUAACCUUGGAGCAAAAAUUCCUCAAGGAUGUCAUAAACAAAGUUUACCAGAGGAAAUUUCUUCCUGUCUAAAUACAAAGUCUGAAGCUCUGAGAACAAAA | 0.122 ratio |

Series 2
Target: CCNA1, cyclin fold, Cln2 fusion (human)
Technique: yeast growth competition, sequencing
Matrix: yeast
Notes: weak parent motif
Reference: not given
Reading: higher = stronger binding
Parent: ORC1 docking peptide (human); PRARKRLELGNLG
| Substitution | normalised enrichment score |
| --- | --- |
| PRARKRLELGNNG [L12N] | 0.498 |
| PRARKRLALGNLG [E8A] | 0.417 |
| MRARKRLELGNLG [P1M] | 0.0442 |
| PRARKRLELMNLG [G10M] | 0.34 |
| PRARKRLELGNDG [L12D] | 0.154 |
| PRATKRLELGNLG [R4T] | 0.438 |

Series 3
Target: Ras GTPase-activating protein-binding protein 1, full length (G3BP1, Homo sapiens, UniProt Q13283)
Sequence of UniProt Q13283 (whole entry, looked up): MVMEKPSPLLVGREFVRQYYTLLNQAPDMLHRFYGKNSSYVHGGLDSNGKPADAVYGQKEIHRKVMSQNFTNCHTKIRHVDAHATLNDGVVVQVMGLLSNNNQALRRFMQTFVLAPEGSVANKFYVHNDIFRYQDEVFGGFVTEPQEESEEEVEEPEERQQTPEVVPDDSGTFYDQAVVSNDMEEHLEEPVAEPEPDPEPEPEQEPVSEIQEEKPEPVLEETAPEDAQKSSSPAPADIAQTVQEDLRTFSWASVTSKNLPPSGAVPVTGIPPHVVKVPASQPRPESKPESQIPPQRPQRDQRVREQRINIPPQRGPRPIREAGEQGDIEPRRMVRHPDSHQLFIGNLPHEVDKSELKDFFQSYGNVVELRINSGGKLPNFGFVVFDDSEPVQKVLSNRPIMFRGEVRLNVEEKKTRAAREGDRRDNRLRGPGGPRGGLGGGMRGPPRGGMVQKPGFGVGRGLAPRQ
Technique: RNA Bind-n-Seq
Molecule type: RNA
Matrix: in vitro
Concentration: 200 nM
Notes: whole 134-nt RNA, ends assumed
Together with: 150 mM LiCl
Reference: input library
Reading: higher = stronger binding
Library: 7-deaza-guanosine replaces G
Shared flanks, not repeated: GGGAGUUCUACAGUCCGACGAUC … UGGAAUUCUCGGGUGUCAAGG
| Strand | log2 enrichment |
| --- | --- |
| AGUCCUGUGCUACACAUCGUAUGUACCGAAUCGGGGUUUUUUUGGGGUGGGGAGGGGAAAGUAUUAUGUUACGCCGUUCGGAUCUGCACU | 0.883 |
| CCUGUGCUACACAUCGUAUGUACCGAAUCAAAUUUUUUUAAACCCCCAAACCCCCCCAAAAAAGUAUUAUGUUACGCCGUUCGGAUCUGC | 0.57 |
| CACAGACAACACGCACCCACACAGACACAGAGGGAAGGGAUUGGGAUGGGGACAGGGUGCACAGCAGGGCGGGGUAGGACCCCAGCCCCU | -0.749 |
| AGUCCUGUGCUACACAUCGUAUGUACCGAAUCAAAUUUAAACCCCCCCAAACCCAAAAAAGUAUUAUGUUACGCCGUUCGGAUCUGCACU | 1.29 |
| ACCAUGCAGGUGGGCAUCGUUGGGAAGUGGGGCAAGGGGGGGAUAGGGAGGGGGGUAACACUUUGGGAACAGGUGGUCCCAGGUCGUUUC | 0.862 |

Single results of other studies
| Substance | target | test | system | setting | how to read | quantity | value |
| --- | --- | --- | --- | --- | --- | --- | --- |
| PhoQ, residues 284 288 289 292 302 303 TLSLKA | PhoP, residues 12 14 15 18 19 LYFRQ (Escherichia coli, UniProt P23836) | Sort-seq, measured: YFP reporter | E. coli | PhoQ-PhoP variant library, together with: 10 µM Mg2+ | reference: high Mg2+ state, higher = stronger signaling | fold induction | 1.83 |

A few entries again (series 1):
| Strand | bound/input enrichment |
| --- | --- |
| UUCUUCCCUAAGAGAACCACCUCCCUGAUUCUUCCCGGCAUCAUAAAGGCAGCUGCUCACGUAUUAUAUGAAACGGAAGUGGAAGUGUCGUUAAUGCCUCCCUGCUUCCAUAAUGAUUGC | 0.392 ratio |
| AGUAGUCAAGGGUAUCAAUGGAUCUGAUCUGAGGAAACACAGGAAGACAGCUCUACAACUGUCUACAACAGCUGGUAGGGCAAGGCUCUGUCUUCUGUGUGUGACGCGUGUAUUGAACAG | 0.115 ratio |
| ACUUGGAGAGGAUUAUCUUUGAGCCAAGAUUUGGACAGGAGUGAAGUCGGUCCUUAAGAAUUUGUGGCGCGACCGGAGCUGGGCUCCUGACAGGUGGGCUUGUGUUGUGUCCCCUCUGAU | 0.271 ratio |
